Measured values of several laboratories.
Numbered parts are unrelated; each lists some results of a single study. Substitutions count along the parent as printed.

Study 1
Target: Interferon regulatory factor 7, full length, phosphomimetic (IRF7, Homo sapiens, UniProt Q92985, residues 1-503, S471D/S472D/S475D/S476D/S477D/S483D/S484D/S487D)
Method: protein-binding microarray
Molecule type: double-stranded DNA, one strand shown
Matrix: in vitro
Concentration: 2200 nM top
Setting: 60-bp whole probe
Together with: salmon DNA 0.4 mg/ml
Relative to: random background probes
Direction: higher = stronger binding
All sequences stand within: GCCTAGCAC … GTCTTGATTCGCTTGACGCTGCTG
Target sequence (chain): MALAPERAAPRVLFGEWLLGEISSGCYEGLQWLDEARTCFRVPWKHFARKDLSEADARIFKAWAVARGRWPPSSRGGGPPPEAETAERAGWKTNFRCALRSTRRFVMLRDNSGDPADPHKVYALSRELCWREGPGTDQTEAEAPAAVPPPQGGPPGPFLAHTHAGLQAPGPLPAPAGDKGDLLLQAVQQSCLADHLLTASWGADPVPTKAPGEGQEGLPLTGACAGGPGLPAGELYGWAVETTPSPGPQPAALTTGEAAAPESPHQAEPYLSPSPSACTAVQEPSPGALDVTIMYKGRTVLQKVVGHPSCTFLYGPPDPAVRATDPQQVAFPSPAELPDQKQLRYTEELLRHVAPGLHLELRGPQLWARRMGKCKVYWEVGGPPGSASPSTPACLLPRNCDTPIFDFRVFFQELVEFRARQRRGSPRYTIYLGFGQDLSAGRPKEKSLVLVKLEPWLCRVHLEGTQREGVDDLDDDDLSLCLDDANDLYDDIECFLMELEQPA
Oligonucleotide | fitted relative affinity [z-score]
TTCGTTTTGTGTCTGGGCATGTGCTAG | 2.79
TTAGGTTTCGGGTTTCAGTTAGTGCTA | 8.52
TTAGGTTTCCTATTCCTTTAGTGCTAG | 2.67
TTCGAACTGGGGTTTCGATTAGTGCTA | 2.46
GACGATTTCGGGCCTGGAGACGTGCTA | 0.692
TCAGGTCTCGCTTCATCACTGTGCTAG | 1.94
GACGATATCGGGTATCCAGACGTGCTA | 0.186
TTACTTCCCAATAATCTTTTCGTGCTA | 1.88
GACGAAATCAGTTTCGAGACGTGCTAG | 3.45
GACGGTTTCAGTCTCGAGACGTGCTAG | 2
TTAGGACTGGACTATCGGTAAGTGCTA | -0.637
GACGATTTCGACACTGGGGACGTGCTA | 1.11
GGGACTTTGAATTAGAAAGAGTGCTAG | -0.958

Study 2
Target: ABI1, truncated, D143A, DHFR fusion (Arabidopsis thaliana)
Method: DHFR PCA, deep sequencing
Matrix: yeast
Setting: methotrexate growth selection, single substitutions
Together with: (+)-ABA 1.4 µM
Relative to: wild-type fitted maximum
Direction: higher = stronger binding
Starting sequence: PYL1, truncated, DHFR fusion (Arabidopsis thaliana); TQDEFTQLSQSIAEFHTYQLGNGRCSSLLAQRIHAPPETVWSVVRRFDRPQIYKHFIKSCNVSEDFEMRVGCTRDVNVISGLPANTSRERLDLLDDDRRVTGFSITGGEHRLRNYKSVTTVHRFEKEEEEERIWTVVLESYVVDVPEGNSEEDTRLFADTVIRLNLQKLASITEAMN; partner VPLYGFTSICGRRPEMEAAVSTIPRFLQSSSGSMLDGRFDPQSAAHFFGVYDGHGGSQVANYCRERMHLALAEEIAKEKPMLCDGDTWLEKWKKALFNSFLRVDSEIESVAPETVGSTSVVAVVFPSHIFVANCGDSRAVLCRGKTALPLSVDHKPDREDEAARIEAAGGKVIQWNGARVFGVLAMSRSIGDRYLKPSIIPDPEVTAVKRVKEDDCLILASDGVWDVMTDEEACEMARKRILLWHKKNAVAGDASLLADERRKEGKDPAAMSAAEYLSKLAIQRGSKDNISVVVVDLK
Variant | relative binding score [%]
L112N | -6.41
R132V | 56.9
C72F | 10.3
V118N | 8.86
V70N | -2.37
S140W | 5.98
E130H | 60.5
L91Y | 0.402
L8Y | 32.6
G102D | -6.24
G21A | 57
R163Y | -32
D3W | 40.3
L156W | 31
H55K | 72.3
E147C | 31.1
A35G | -0.504

Study 3
Target: FOSL1, bZIP domain (human)
Method: DHFR protein complementation
Matrix: yeast
Setting: single substitutions, most at no-binding floor
Relative to: wild-type JUN-FOS pair
Direction: higher = stronger binding
Starting sequence: JUN, bZIP domain (human); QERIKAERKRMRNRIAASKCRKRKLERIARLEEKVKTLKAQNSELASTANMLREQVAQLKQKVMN; partner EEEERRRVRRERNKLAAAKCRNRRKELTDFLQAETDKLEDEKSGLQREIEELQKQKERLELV
Variant | binding fitness [natural log]
N42M | -0.812
A40T | -0.324
T37Y | -0.578
E44T | -0.628
L31H | -1.06
T48R | -0.244
A40E | -0.367
A40P | -1.34
Q41D | -0.743
M51E | -0.354
K34I | -0.791
L45S | -1.37
M51D | -0.337
I28V | -0.416
L52M | -1.01
Q41L | -0.597
Q55H | -0.571

Study 4
Target: CCNA1, cyclin fold, Cln2 fusion (human)
Method: yeast growth competition, sequencing
Matrix: yeast
Setting: weak parent motif
Relative to: not given
Direction: higher = stronger binding
Starting sequence: SLBP docking peptide (human); ARYKRKLLINDFG; partner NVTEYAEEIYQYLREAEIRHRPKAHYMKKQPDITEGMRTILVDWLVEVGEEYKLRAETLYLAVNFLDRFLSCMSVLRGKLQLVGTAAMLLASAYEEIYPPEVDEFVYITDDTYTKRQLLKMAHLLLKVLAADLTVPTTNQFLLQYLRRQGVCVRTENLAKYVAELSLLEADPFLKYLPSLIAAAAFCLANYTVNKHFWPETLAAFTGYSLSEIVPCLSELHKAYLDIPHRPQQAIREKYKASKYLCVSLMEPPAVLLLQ
Variant | normalised enrichment score
ARYKRKLLINDYG [F12Y] | 0.654
ARYKRKLLINDTG [F12T] | -0.0923
AGYKRKLLINDFG [R2G] | 0.435
ARQKRKLLINDFG [Y3Q] | 0.47
ARYKGKLLINDFG [R5G] | 0.253
ARYKRKLLIGDFG [N10G] | 0.697
ARYKVKLLINDFG [R5V] | 0.442
ARYKRKLLSNDFG [I9S] | 0.811
ARYKFKLLINDFG [R5F] | 0.252
ARYKRKELINDFG [L7E] | 0.176
ARYKRKLLINEFG [D11E] | 0.48
AWYKRKLLINDFG [R2W] | 0.6
ARYKRKLLIHDFG [N10H] | 0.289
ARYKRKLLLNDFG [I9L] | 0.536

Study 5
Target: Histone acetyltransferase KAT6A, winged helix 1, GST fusion (KAT6A, Homo sapiens, UniProt Q92794, residues 1-85)
Method: protein binding microarray
Molecule type: double-stranded DNA, one strand shown
Matrix: in vitro
Concentration: not given
Setting: 8-mer, flanks averaged, mean of 2 arrays, mostly near background
Relative to: not given
Direction: higher = stronger binding
Target sequence (chain): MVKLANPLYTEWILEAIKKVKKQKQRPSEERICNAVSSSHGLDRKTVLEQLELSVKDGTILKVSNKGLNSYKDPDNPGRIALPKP
Oligonucleotide | E-score
ACCAATCA | -0.32
CTCTACTA | -0.171
ACGACGGC | 0.374
CACAACAA | -0.055
CGCGAAGC | 0.255
CTACTGGC | 0.023
AGCCCGAT | -0.0222
AAATGCTT | -0.0832
GGGCCTGA | 0.0187
ACGCTTGG | 0.047
AGCAGATG | -0.328
CGCGCACC | 0.4
GACGGTCA | 0.185
AAACGTTG | -0.141
CCGCCGGC | 0.487
AAGTTCAA | -0.0848
AGAGCAGC | -0.0154
AACCAAGG | -0.127
CGAATCAG | -0.244

Study 6
Target: Sal-like protein 4, full length isoform B (SALL4, Homo sapiens, UniProt Q9UJQ4-2, residues 1-616)
Method: universal PBM
Molecule type: double-stranded DNA, one strand shown
Matrix: in vitro
Concentration: not given
Setting: 8-mer, flanks averaged, mean of replicates
Direction: higher = stronger binding
Target sequence (chain): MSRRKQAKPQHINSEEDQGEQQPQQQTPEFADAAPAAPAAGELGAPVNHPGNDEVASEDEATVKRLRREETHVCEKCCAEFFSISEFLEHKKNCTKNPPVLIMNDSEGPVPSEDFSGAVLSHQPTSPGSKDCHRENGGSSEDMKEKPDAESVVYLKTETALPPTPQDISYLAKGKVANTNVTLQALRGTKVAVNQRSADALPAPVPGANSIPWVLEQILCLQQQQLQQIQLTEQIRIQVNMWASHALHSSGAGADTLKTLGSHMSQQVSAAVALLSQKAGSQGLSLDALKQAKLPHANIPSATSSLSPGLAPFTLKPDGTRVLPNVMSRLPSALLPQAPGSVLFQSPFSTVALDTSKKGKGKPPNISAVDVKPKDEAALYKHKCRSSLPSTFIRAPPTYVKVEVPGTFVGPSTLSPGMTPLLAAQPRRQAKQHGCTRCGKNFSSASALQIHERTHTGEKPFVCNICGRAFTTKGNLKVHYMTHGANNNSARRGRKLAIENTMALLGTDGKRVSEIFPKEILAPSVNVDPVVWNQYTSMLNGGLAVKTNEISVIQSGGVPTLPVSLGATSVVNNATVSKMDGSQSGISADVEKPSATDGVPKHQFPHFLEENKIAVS
Oligonucleotide | E-score
ACTGCTCG | -0.115
ACTACCGC | -0.0015
CAAAAATA | 0.355
CCCATTCA | -0.02
AGCCGCGC | -0.296
CCTACTTC | -0.0828
AAGCTCTC | -0.187
AACGGGGG | -0.164
ACCTGGCG | -0.32
ACGTCAGC | -0.0986
CGGGAAGC | -0.178
ATGATTTA | 0.282
CGCCGACC | -0.328
ACTGCGTG | -0.167
ATACAGGC | 0.152
CTATAGGA | 0.0961
ACACTCGG | -0.115
CCGACTTC | -0.303
GAAAATAA | 0.347
CTCCGGAG | -0.286
ACCATACG | 0.0722
CCGAATTA | 0.0644

Some of these lines once more (study 4):
Variant | normalised enrichment score
ARYKRKLLINDYG [F12Y] | 0.654
ARYKRKLLINDTG [F12T] | -0.0923
AGYKRKLLINDFG [R2G] | 0.435
ARQKRKLLINDFG [Y3Q] | 0.47
ARYKGKLLINDFG [R5G] | 0.253
ARYKRKLLIGDFG [N10G] | 0.697
ARYKVKLLINDFG [R5V] | 0.442
ARYKRKLLSNDFG [I9S] | 0.811
ARYKFKLLINDFG [R5F] | 0.252
ARYKRKELINDFG [L7E] | 0.176
ARYKRKLLINEFG [D11E] | 0.48
AWYKRKLLINDFG [R2W] | 0.6
ARYKRKLLIHDFG [N10H] | 0.289
ARYKRKLLLNDFG [I9L] | 0.536
